Assay results gathered from unrelated publications.
A part holds a random share of what one study measured.

Sample 1
Target: Myc proto-oncogene protein, bHLH-zipper, MAX partner unstated (MYC, Homo sapiens, UniProt P01106, residues 368-449)
Chain of UniProt P01106 (368-449, looked up): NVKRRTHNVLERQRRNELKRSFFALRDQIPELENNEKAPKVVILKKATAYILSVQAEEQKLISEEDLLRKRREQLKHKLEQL
Technique: protein-binding microarray
Molecule type: double-stranded DNA, one strand shown
Sample: in vitro
Concentration: not given
Setting: k-mer, scored over probes, only values ≥0.25
Reading: higher = stronger binding
Quantity: E-score
CCATGCCC: 0.322
ACACGCAT: 0.381
ATGACATG: 0.311
TGCCGGCA: 0.375
AGCAGGTG: 0.349
CGTGCGAG: 0.349
GTGGCAAA: 0.269
AGCAGATG: 0.292
GGACGCAC: 0.289
TGCCGCCA: 0.251
TCGTGCCA: 0.31
GCGCGGAA: 0.268
CACGCCGG: 0.402
ACATGAGG: 0.426
CATGTCAG: 0.282
AAAATGTG: 0.292
AGCACGCT: 0.413
GACCGCGC: 0.252
CGCCCACA: 0.31
ATCGTGTG: 0.273
CGCCCCTC: 0.262

Sample 2
Target: Interferon regulatory factor 3, full length, phosphomimetic (IRF3, Homo sapiens, UniProt Q14653, residues 1-427, S386D/S396D/S398D/S402D/T404D/S405D)
Technique: protein-binding microarray
Molecule type: double-stranded DNA, one strand shown
Sample: in vitro
Concentration: 2540 nM top
Setting: 60-bp whole probe
Together with: salmon DNA 0.4 mg/ml
Relative to: random background probes
Reading: higher = stronger binding
Quantity: fitted relative affinity
Constant ends, left off below: GCCTAGCAC … GTCTTGATTCGCTTGACGCTGCTG
Construct (chain): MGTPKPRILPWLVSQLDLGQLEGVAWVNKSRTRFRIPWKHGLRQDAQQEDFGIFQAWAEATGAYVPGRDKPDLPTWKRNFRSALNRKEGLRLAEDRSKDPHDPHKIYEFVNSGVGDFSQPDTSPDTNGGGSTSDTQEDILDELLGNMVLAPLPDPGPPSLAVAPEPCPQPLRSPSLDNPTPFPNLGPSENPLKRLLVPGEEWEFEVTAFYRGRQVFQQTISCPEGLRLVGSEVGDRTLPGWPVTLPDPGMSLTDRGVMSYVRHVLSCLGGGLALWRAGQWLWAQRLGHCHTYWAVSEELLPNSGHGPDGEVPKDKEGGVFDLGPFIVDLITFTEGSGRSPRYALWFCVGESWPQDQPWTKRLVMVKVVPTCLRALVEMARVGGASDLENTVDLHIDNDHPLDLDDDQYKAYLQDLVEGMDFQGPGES
TTAGATATCATACTGGATTAGTGCTAG: 0.355 z-score
GACGGTATCCTTCTCATGACGTGCTAG: 6.98 z-score
TTAGGTATGGACTTTCGGTTAGTGCTA: 1.03 z-score
TCACCTCTGGGCTGTTTGACTGTGCTA: -0.184 z-score
TCACATTTTCATTTTGTACTGTGCTAG: 2.49 z-score
TTAGATATCAGTCTCGATTGGTGCTAG: 1.14 z-score
TTAGAACTGAGACAGGATTAGTGCTAG: -0.294 z-score
TCATTTTGCCCTATTTAACTGTGCTAG: 2.21 z-score
TTACGACTGGGTTTCGGTTAGTGCTAG: 3.29 z-score
TTAGGTTCCGGTTACGGTTAGTGCTAG: 3.69 z-score
GACGATCTCAGTAACGAGACGTGCTAG: 0.39 z-score
TTAGGTCTCCTTTTACTTTAGTGCTAG: 4.65 z-score
TTAGATCTCAGTCTCCATTAGTGCTAG: 1.09 z-score
GACGGACTGGATACTGGGGACGTGCTA: -0.313 z-score
TCAGGTCTCGCTTCATCACTGTGCTAG: 0.699 z-score
TCATGCTTTCTTTTATGACTGTGCTAG: 0.947 z-score
TTAGGTATCCTTTTCCTTTAGTGCTAG: 8.36 z-score
CCGGGTTTCACCATGTTGGCGTGCTAG: 0.805 z-score
TCAGTCTTCACTCTGCTACTGTGCTAG: 0.614 z-score
TCATATGTCTGTTTTTGACTGTGCTAG: 0.99 z-score
GACGGATCCGGTTTCGGGACGTGCTAG: 4.25 z-score
TTAGCTATCGGACTGGGTTAGTGCTAG: -0.265 z-score
GACGATTTCAGCTTCGAGACGTGCTAG: 0.847 z-score
GACGAATTCAGTTTCGAGACGTGCTAG: 3.26 z-score
TTAGGTCTGGACTTTCGGTTAGTGCTA: 0.981 z-score

Sample 3
Target: Histone acetyltransferase KAT6A, winged helix 1, GST fusion (KAT6A, Homo sapiens, UniProt Q92794, residues 1-85)
Technique: protein binding microarray
Molecule type: double-stranded DNA, one strand shown
Sample: in vitro
Concentration: not given
Setting: 8-mer, flanks averaged, mean of 2 arrays, mostly near background
Relative to: not given
Reading: higher = stronger binding
Quantity: E-score
Target sequence (chain): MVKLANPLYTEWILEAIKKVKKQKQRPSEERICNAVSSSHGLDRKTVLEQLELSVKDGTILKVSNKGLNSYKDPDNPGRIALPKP
ATTCTGGG: -0.201
GATCATCA: -0.152
CCCGGACG: 0.277
AATCTAGC: -0.032
CTCACCAC: -0.172
AATCTTCG: 0.019
CGAGCACA: -0.142
CCGCTCGA: 0.298
CTTTACCC: 0.0429
AGGTCTTC: -0.105
CAGCATTC: -0.15
CGTCCGTA: 0.301
ACAAAAGT: -0.287
AATCCAAC: -0.152
AACTTGCG: 0.103
GGAGGATA: -0.2
AGCTTGTC: 0.00931
CGTGCGAG: 0.23
GGGCGATA: 0.129
AATCTCAG: -0.0888
CGCCGGAA: 0.335
ACGATTAG: -0.116

Sample 4
Target: Sal-like protein 4, full length isoform A (SALL4, Homo sapiens, UniProt Q9UJQ4, residues 1-1053)
Chain of UniProt Q9UJQ4 (whole entry, looked up): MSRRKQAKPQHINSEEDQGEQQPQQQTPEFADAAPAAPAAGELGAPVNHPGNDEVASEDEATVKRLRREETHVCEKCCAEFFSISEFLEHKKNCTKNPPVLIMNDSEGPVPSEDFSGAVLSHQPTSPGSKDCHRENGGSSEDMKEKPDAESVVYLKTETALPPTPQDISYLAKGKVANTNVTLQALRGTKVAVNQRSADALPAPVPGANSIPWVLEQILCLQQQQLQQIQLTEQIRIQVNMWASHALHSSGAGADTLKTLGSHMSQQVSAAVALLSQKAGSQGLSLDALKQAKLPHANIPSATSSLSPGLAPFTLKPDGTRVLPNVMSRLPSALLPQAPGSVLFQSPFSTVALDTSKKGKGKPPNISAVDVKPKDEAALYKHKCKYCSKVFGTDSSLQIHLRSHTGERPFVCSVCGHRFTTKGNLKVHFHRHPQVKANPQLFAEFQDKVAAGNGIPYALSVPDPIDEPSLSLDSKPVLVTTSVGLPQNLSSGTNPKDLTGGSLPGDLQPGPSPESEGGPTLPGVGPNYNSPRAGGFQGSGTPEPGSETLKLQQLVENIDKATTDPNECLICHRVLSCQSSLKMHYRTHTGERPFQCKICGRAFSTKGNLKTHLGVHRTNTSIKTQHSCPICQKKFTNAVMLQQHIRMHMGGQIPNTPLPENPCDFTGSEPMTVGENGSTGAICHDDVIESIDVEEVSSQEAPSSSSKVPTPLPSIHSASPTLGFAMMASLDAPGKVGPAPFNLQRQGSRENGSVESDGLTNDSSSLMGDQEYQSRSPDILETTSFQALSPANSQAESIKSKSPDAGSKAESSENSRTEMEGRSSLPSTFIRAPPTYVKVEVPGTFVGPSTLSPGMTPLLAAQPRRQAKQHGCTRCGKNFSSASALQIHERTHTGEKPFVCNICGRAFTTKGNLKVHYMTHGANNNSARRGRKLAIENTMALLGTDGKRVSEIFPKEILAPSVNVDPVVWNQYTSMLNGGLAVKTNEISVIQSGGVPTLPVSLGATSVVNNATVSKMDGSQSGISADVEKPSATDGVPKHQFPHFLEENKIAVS
Technique: universal PBM
Molecule type: double-stranded DNA, one strand shown
Sample: in vitro
Concentration: 600 nM
Setting: 8-mer, flanks averaged, mean of replicates
Reading: higher = stronger binding
Quantity: E-score
CGGCCGTC: -0.354
ACTCTGAA: 0.135
GCCACAAC: 0.0347
ACCACGCA: -0.113
AGTCCATC: -0.0282
GAGTTCCA: -0.105
GAATCTCC: -0.133
GAAAGGGC: -0.108
AATTGTTG: 0.197
CGACTCGA: -0.147
CCTTCAAA: 0.148
CCGGCGTC: -0.365
ACTGAGTC: -0.0451
ATGTTCAC: 0.0987
CAGGTTCC: -0.343
CCTAGGCA: -0.149
ACGAAGCA: 0.0462
AAGGCACA: 0.0649
CACTGCGG: -0.2
AGTCCAGC: -0.264
GTCAAAGA: 0.238
CAAAGGGC: -0.308

Sample 5
Target: RNA binding protein fox-1 homolog 2, RRM domain, GST-SBP tag (RBFOX2, Homo sapiens, UniProt O43251-10, residues 100-194)
Technique: RNA Bind-n-Seq
Molecule type: RNA
Sample: in vitro
Concentration: 365 nM
Setting: natural RNA segment, single round, ends assumed
Relative to: no-protein control
Reading: higher = stronger binding
Quantity: RBNS enrichment (R)
Constant ends, left off below: GGGAGUUCUACAGUCCGACGAUC … UGGAAUUCUCGGGUGCCAA
Construct (chain): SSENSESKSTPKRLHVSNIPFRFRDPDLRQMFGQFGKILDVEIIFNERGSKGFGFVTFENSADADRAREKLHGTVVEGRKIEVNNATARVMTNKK
UGUCCCAGACUUCCUUUGUCUUCAACAACCUUCUGCAAGAAAACCAAGGGCCUGAAUUUUAACUUCCUGUGCACAAUGUACCUUUUGAGAUGAUUCGAAGGGCCUUUCAC: 0.558
ACACUGCAAGCCCUUAAUCAGCCCUCUGUGACAUAGGUAGCAGCCCACGGAGAUCCUAAGCUGGCUGUCUUGUGUGCAGCCUGAGUGGGGUGGUGCAGGCCGGUAGUCUG: 0.228
AGUAGUUUAGCUUGUUUAUUGCAAUGCUGGCCUCAACACAACAGAAUAAAAAUGGUAGAAAGUACUCUUUGAUGUUUCUGGUAAUCAUGGACCCUUCUCCUGGGGCAUUU: 0.365
AAUGUUUGAUAUUUUAUACCAGCUUAUGAGCUCAAAGUACUACAGCAAAGCCUAGCCUGCAUAUCAUUCACCCAAAACAAAGUAAUAGCGCCUCUUUUAUUAUUUUGACU: 0.878
CCAUGUCCUCAGACCCAGCAAAAGCGUAGAGGCAGAAUUAGAGGCCUCUCCAGGCCAGCUCCUCUGCCCACAUGUCAUACAAGGUGUGAAUUUGAGCACAGUCCAGAAAU: 0.242
UGUCCCUUUUUGGUUUCUGGAAAGAUUCUUUGUCAACAUUAGUAACUGAUACAUAGAACCAAGGAGCACUCAAAUAGGGAGCCAGGAGCCAGGGAGCUGGUGACACUUGU: 0.362
AGCGGUUUUUGAGCUUUCAAUAAGCUAUAGCUUUGUUUAUUUCACCUGUUCACUUACUGUAUAAUUUAAAAUCAUUUAUGUAGCUGAGACACUUUGAUACUUCAAUUAUA: 0.725
CCUGGUAUCCUGAGUUUUACAUGUAGAUGCAUUCGCCUAUUUGAUUCAGAAAAAUAAACUUUCCCAAAAUGUGUCUGAACCACAAGAGCAUACAGUGGAAGUGCUACCUC: 0.738
GCAUGUACUGUCCUGUAGGAAAGAAAAUGUGGCUCUAGCUAUUGACCCAUACAGCUGUUGGAAUCUCUGCAAGUAUAUUUGCCUAAUAAAUUCUCUCUUUUGUUUAAACU: 43.6
GUCCUUUUCAUGUAAAUUUUUGUGCAAGCACAAUCUACUUUAACUGCCUUGCCUGACCAAAUUAAAUAAAUAGUUGCCAGAUCUCUGCUUUUAUCCUGCAUGGGAUAACA: 1.05
CUUAUUUUAAAUGAGAUCAGGUAGUGUUGCUUUUUACAGCAUAAUAAAUAUGUGUAUUGAAAACAAAUAUGAGAAAAAGUGUUUUCUUUUUUAAUAACUAAGGUUUUCUC: 0.783
GGGAGAAGCUGAAAGACCAAGACUCUUCCCAAGUUAGCUUGUCUCCUCUCCUGUCACCCUAAGAGCCACUGAGUUGUGUAGGGAUGAAGACUAUUGAAGACUCCAUUGCC: 0.89

Sample 6
Target: Fragile X messenger ribonucleoprotein 1, C-terminal low-complexity region (Fmr1, Mus musculus, UniProt P35922)
Technique: RNA Bind-n-Seq
Molecule type: RNA
Sample: in vitro
Concentration: 200 nM
Setting: whole 134-nt RNA, ends assumed
Together with: 150 mM KCl
Relative to: input library
Reading: higher = stronger binding
Quantity: log2 enrichment
Constant ends, left off below: GGGAGUUCUACAGUCCGACGAUC … UGGAAUUCUCGGGUGUCAAGG
ACCAUGCAGGUGGGCAUCUUUGGGAAGGGGGGCAAGGGGGGGAUAGGGAGGGGGGUAACACUUUGGGAACAGGUGGUCCCAGGUCGUUUC: 0.546
AAGUCCUGUGCUACACAUCGUAUGUACCGAAUCGGGGUUUGGGGAAAGGGGAGGGGAAAGUAUUAUGUUACGCCGUUCGGAUCUGCACUU: 0.722
CCUGUGCUACACAUCGUAUGUACCGAAUCGGGGCCCCCCCGGCCCCCCCGGCCCCCCCGGAAAGUAUUAUGUUACGCCGUUCGGAUCUGC: -0.177
UCUAACUAAUUUUUCUUUGUUUUUUAACAGGAGAGGAGAUACUUACCCUUAAGUCAAGCCAGAAAAAGUGGUUUCCAAAUGGAUUGGCUG: -1.1
CAGCAGUGAGUCUCUUCAGAAAACCCUUUUCUACAGUUAGGGUUGAGUUACUUCCUAUCAAGCCAGUACGUGCUAACAGGCUCAAUAUUC: -0.648
CAAGUCCUGUGCUACACAUCGUAUGUACCGAAUCGGAAAGGAAAGGGGAAAGGGGAAAGUAUUAUGUUACGCCGUUCGGAUCUGCACUUC: -0.217
UAACUUUAGAGGAGGAUCUGAUGGAUAUGGCAGUGGACGUGGAUUUGGGGAUGGCUAUAAUGAGUAUGGAGGAGGACCUGGAGGUGGCAA: 0.24
AGUCCUGUGCUACACAUCGUAUGUACCGAAUCGGGGAAAAAAAGGGGAGGGGAGGGGAAAGUAUUAUGUUACGCCGUUCGGAUCUGCACU: 0.653
AGUCCUGUGCUACACAUCGUAUGUACCGAAUCGGUUUUUGGUUUUUGGGUUUUUGGGGAAAGUAUUAUGUUACGCCGUUCGGAUCUGCAC: -0.363
GUCCUGUGCUACACAUCGUAUGUACCGAAUCAAACCCCCCCAAAUUUUUAAACCCAAAAAAGUAUUAUGUUACGCCGUUCGGAUCUGCAC: 0.103
CAAGUCCUGUGCUACACAUCGUAUGUACCGAAUCGGUUUGGGUUUGGGGUUUGGGAAAGUAUUAUGUUACGCCGUUCGGAUCUGCACUUC: -0.107
UGUUGUCUGGGUUUGGGGGUCGAGUAGAUGCGGGGCAGCCGGAGCUGUUGACGGAAAGGAGUAGCCCCAAAGGAGGGCAUGUGAAGUCGC: -0.164
AGUCCUGUGCUACACAUCGUAUGUACCGAAUCGGAAAAAGGAAAAAGGGAAAAAGGGGAAAGUAUUAUGUUACGCCGUUCGGAUCUGCAC: -0.463
CCUGUGCUACACAUCGUAUGUACCGAAUCGGGGCCCCCGGGGCCCCCGGGGCCCCCGGGGAAAGUAUUAUGUUACGCCGUUCGGAUCUGC: -0.849

A few entries again (sample 4):
ACCACGCA: -0.113
AAGGCACA: 0.0649
ATGTTCAC: 0.0987
CCTAGGCA: -0.149
CGGCCGTC: -0.354
CCTTCAAA: 0.148
CCGGCGTC: -0.365
CAAAGGGC: -0.308
AGTCCATC: -0.0282
CACTGCGG: -0.2
